Assay results collected from several papers.
Partner: itself
B1: aqpZ 1-231 C20S/G144F (Escherichia coli, UniProt P60844); chain MFRKLAAECFGTFWLVFGGSGSAVLAAGFPELGIGFAGVALAFGLTVLTMAFAVGHISGGHFNPAVTIGLWAGGRFPAKEVVGYVIAQVVGGIVAAALLYLIASGKTGFDAAASGFASNGYGEHSPGGYSMLSALVVELVLSAFFLLVIHGATDKFAPAGFAPIAIGLALTLIHLISIPVTNTSVNPARSTAVAIFQGGWALEQLWFFWVVPIVGGIIGGLIYRTLLEKRD
B2: Ern1 499-977 N772Y (Mus musculus, UniProt Q9EQY0); sequence looked up; chain HPHGDLTQDPEFLDSSGPFSESSGTSSPSPSPRASNHSLHPSSSASRAGTSPSLEQDDEDEETRMVIVGKISFCPKDVLGHGAEGTIVYKGMFDNRDVAVKRILPECFSFADREVQLLRESDEHPNVIRYFCTEKDRQFQYIAIELCAATLQEYVEQKDFAHLGLEPITLLHQTTSGLAHLHSLNIVHRDLKPHNILLSMPNAHGRIKAMISDFGLCKKLAVGRHSFSRRSGVPGTEGWIAPEMLSEDCKDNPTYTVDIFSAGCVFYYVISEGYHPFGKSLQRQANILLGACNLDCFHSDKHEDVIARELIEKMIAMDPQQRPSAKHVLKHPFFWSLEKQLQFFQDVSDRIEKEALDGPIVRQLERGGRAVVKMDWRENITVPLQTDLRKFRTYKGGSVRDLLRAMRNKKHHYRELPVEVQETLGSIPDDFVRYFTSRFPHLLSHTYQAMELCRHERLFQTYYWHEPTEPQPPVIPYAL
B3: ALPL 18-500 (Homo sapiens, UniProt P05186); sequence looked up; chain LVPEKEKDPKYWRDQAQETLKYALELQKLNTNVAKNVIMFLGDGMGVSTVTAARILKGQLHHNPGEETRLEMDKFPFVALSKTYNTNAQVPDSAGTATAYLCGVKANEGTVGVSAATERSRCNTTQGNEVTSILRWAKDAGKSVGIVTTTRVNHATPSAAYAHSADRDWYSDNEMPPEALSQGCKDIAYQLMHNIRDIDVIMGGGRKYMYPKNKTDVEYESDEKARGTRLDGLDLVDTWKSFKPRYKHSHFIWNRTELLTLDPHNVDYLLGLFEPGDMQYELNRNNVTDPSLSEMVVVAIQILRKNPKGFFLLVEGGRIDHGHHEGKAKQALHEAVEMDRAIGQAGSLTSSEDTLTVVTADHSHVFTFGGYTPRGNSIFGLAPMLSDTDKKPFTAILYGNGPGYKVVGGERENVSMVDYAHNNYQAQSAVPLRHETHGGEDVAVFSKGPMAHLLHGVHEQNYVPHVMAYAACIGANLGHCAPA
B4: Il2/Il2ra IL-2 fused to CD25 ectodomain (Mus musculus); chain APTSSSTSSSTAEAQQQQQQQQQQQQHLEQLLMDLQELLSRMENYRNLKLPRMLTFKFYLPKQATELKDLQCLEDELGPLRHVLDLTQSKSFQLEDAENFISNIRVTVVKLKGSDNTFECQFDDESATVVDFLRRWIAFCQSIISTSPQGGGSGGGSGGGSELCLYDPPEVPNATFKALSYKNGTILNCECKRGFRRLKELVYMRCLGNSWSSNCQCTSNSHDKSRKQVTAQLEHQKEQQTTTDMQKPTQSMHQENLTGHCREPPPWKHEDSKRIYHFVEGQSVHYECIPGYKALQRGPAISICKMKCGKTGWTQPQLTCVDEREHHRFLASEESQGSRNSSPESETSCPITTTDFPQPTETTAMTETFVLTMEYKGG
B5: DCAF1 817-1507 (Homo sapiens, UniProt Q9Y4B6); sequence looked up; chain SGKPLLIGTDVSLARLQKADVVAQSRISFPEKELLLLIRNHLISKGLGETATVLTKEADLPMTAASHSSAFTPVTAAASPVSLPRTPRIANGIATRLGSHAAVGASAPSAPTAHPQPRPPQGPLALPGPSYAGNSPLIGRISFIRERPSPCNGRKIRVLRQKSDHGAYSQSPAIKKQLDRHLPSPPTLDSIITEYLREQHARCKNPVATCPPFSLFTPHQCPEPKQRRQAPINFTSRLNRRASFPKYGGVDGGCFDRHLIFSRFRPISVFREANEDESGFTCCAFSARERFLMLGTCTGQLKLYNVFSGQEEASYNCHNSAITHLEPSRDGSLLLTSATWSQPLSALWGMKSVFDMKHSFTEDHYVEFSKHSQDRVIGTKGDIAHIYDIQTGNKLLTLFNPDLANNYKRNCATFNPTDDLVLNDGVLWDVRSAQAIHKFDKFNMNISGVFHPNGLEVIINTEIWDLRTFHLLHTVPALDQCRVVFNHTGTVMYGAMLQADDEDDLMEERMKSPFGSSFRTFNATDYKPIATIDVKRNIFDLCTDTKDCYLAVIENQGSMDALNMDTVCRLYEVGRQRLAEDEDEEEDQEEEEQEEEDDDEDDDDTDDLDELDTDQLLEAELEEDDNNENAGEDGDNDFSPSDEELANLLEEGEDGEDEDSDADEEVELILGDTDSSDNSDLEDDIILSLNE
B6: aqpZ 1-231 C20S (Escherichia coli, UniProt P60844); chain MFRKLAAECFGTFWLVFGGSGSAVLAAGFPELGIGFAGVALAFGLTVLTMAFAVGHISGGHFNPAVTIGLWAGGRFPAKEVVGYVIAQVVGGIVAAALLYLIASGKTGFDAAASGFASNGYGEHSPGGYSMLSALVVELVLSAGFLLVIHGATDKFAPAGFAPIAIGLALTLIHLISIPVTNTSVNPARSTAVAIFQGGWALEQLWFFWVVPIVGGIIGGLIYRTLLEKRD

For `CRYAA R116C (Homo sapiens) (sequence not shown)`, binding read “binds” (SEC-MALS).
`B1 (aqpZ 1-231 C20S/G144F)` gave a channel permeability of 1.11e-13 cm^3 s^–1 (light scattering; proteoliposomes; hyperosmotic shock).
For `B2 (Ern1 499-977 N772Y)`, binding read “binds” (AUC; added: ADP 500 µM).
For `G3BP1 fragment F15W/F33W/F124W (Homo sapiens) (sequence not shown)`, binding read “binds” (crystal structure).
`B3 (ALPL 18-500)`: binding “binds” (crystal structure).
`B4` has a bioactivity of 42 fold (CTLL proliferation; reference: recombinant mIL-2, higher = more active).
`CRYAA F71L (Homo sapiens) (sequence not shown)` — result for binding: “binds” (SEC).
Under “ubiquitination of UNG2”, `B5 (DCAF1 817-1507)` is recorded as > 2 fold (in vitro ubiquitination; reference: monomeric complex, higher = more ubiquitination).
With `B6 (aqpZ 1-231 C20S)` the channel permeability was 1.13e-13 cm^3 s^–1 (light scattering; proteoliposomes; hyperosmotic shock).

A few entries again:
With `B6 (aqpZ 1-231 C20S)` the channel permeability was 1.13e-13 cm^3 s^–1 (light scattering; proteoliposomes; hyperosmotic shock).
